Assay results of several laboratories.
Each numbered part is a random draw from the data of one study; scales do not carry over between parts.
Sequence of UniProt P29320 (whole entry, looked up): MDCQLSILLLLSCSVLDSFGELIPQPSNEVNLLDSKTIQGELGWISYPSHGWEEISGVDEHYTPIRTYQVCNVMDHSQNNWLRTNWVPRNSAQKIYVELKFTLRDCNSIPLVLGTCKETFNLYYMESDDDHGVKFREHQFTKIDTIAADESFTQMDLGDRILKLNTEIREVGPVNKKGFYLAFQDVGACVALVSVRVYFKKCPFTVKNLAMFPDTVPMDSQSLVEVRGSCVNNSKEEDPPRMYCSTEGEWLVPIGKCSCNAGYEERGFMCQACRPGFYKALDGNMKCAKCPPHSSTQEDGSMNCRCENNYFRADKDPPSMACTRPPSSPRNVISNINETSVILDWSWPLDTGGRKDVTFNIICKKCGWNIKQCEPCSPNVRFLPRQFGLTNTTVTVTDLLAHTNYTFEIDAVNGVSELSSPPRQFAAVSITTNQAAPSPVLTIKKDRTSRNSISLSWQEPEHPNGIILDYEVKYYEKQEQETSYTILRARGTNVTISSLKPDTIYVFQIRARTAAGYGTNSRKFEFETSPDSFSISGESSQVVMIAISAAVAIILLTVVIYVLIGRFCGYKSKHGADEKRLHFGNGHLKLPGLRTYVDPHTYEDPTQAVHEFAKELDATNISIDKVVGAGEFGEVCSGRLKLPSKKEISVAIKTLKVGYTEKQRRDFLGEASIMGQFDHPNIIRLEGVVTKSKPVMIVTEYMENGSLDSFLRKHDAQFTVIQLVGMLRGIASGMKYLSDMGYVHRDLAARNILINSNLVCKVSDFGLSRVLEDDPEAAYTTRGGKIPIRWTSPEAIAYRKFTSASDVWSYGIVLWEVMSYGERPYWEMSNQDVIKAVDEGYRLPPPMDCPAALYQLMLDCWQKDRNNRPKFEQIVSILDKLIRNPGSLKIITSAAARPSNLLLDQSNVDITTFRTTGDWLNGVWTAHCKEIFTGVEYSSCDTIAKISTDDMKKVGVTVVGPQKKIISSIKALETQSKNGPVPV
Sequence of UniProt Q9HC98 (whole entry, looked up): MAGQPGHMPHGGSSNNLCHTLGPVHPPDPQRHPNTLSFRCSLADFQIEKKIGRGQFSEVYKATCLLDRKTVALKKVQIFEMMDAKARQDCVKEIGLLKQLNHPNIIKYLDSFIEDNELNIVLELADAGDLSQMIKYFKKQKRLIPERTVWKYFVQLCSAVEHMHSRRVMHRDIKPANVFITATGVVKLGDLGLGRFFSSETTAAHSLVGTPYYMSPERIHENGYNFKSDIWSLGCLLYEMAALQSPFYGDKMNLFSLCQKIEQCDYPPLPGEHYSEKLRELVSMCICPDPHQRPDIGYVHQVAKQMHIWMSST
Sequence of UniProt P49760 (whole entry, looked up): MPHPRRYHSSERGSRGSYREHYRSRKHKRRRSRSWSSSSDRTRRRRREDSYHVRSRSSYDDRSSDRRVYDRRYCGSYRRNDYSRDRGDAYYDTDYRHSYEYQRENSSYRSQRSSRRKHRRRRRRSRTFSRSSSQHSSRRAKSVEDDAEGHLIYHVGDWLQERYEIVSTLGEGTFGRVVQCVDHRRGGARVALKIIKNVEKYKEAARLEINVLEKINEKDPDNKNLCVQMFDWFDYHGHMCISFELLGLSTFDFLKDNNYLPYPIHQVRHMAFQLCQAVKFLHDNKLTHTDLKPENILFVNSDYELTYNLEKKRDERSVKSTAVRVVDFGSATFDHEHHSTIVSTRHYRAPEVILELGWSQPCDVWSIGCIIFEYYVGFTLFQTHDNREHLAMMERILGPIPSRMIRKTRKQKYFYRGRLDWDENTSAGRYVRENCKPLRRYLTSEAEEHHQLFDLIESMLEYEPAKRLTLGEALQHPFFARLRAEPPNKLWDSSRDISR
Sequence of UniProt P52333 (whole entry, looked up): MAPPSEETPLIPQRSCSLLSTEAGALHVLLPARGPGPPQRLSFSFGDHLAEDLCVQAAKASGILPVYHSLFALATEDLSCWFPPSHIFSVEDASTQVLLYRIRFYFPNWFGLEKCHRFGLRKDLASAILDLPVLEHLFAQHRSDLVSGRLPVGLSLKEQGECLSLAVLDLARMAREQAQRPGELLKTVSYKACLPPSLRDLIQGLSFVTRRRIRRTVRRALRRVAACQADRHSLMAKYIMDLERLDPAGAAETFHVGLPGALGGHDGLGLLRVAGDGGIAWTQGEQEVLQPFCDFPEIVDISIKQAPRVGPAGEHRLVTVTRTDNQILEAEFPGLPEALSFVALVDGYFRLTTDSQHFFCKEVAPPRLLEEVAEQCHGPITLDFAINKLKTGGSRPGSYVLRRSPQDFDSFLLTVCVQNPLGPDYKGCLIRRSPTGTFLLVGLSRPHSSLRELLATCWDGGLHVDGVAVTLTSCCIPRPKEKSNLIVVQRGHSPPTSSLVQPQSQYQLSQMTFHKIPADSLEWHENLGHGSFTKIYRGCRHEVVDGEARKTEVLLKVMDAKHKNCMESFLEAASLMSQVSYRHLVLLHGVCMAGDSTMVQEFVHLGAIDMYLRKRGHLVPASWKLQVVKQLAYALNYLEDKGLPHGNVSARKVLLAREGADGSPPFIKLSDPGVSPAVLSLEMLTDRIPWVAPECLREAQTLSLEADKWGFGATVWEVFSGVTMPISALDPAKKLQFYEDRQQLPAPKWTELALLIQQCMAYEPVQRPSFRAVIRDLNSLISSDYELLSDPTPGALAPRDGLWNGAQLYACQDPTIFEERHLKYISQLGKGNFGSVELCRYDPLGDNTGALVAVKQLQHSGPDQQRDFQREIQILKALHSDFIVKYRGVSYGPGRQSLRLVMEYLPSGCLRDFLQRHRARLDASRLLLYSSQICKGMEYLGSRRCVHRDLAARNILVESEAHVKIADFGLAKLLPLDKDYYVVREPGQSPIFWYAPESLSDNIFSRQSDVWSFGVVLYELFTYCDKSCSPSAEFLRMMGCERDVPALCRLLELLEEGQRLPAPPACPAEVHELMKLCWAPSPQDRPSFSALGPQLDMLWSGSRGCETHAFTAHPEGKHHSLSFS
Sequence of UniProt P10398 (whole entry, looked up): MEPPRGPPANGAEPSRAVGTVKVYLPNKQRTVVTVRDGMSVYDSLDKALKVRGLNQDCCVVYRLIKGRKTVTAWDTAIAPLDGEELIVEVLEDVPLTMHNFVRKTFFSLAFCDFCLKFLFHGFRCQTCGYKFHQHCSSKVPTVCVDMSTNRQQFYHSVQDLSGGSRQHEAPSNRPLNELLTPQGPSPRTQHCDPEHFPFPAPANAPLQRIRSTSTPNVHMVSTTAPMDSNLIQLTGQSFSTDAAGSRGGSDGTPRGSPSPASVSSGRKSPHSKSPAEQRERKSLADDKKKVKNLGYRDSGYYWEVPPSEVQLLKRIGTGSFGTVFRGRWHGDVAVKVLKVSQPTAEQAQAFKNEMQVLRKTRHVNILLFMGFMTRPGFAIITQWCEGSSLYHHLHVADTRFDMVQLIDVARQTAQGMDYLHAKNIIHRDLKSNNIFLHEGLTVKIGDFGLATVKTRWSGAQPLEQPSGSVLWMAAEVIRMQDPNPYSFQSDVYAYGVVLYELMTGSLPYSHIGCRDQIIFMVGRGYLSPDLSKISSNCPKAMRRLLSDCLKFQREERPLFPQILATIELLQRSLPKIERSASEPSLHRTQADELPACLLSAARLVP
Sequence of UniProt P42685 (whole entry, looked up): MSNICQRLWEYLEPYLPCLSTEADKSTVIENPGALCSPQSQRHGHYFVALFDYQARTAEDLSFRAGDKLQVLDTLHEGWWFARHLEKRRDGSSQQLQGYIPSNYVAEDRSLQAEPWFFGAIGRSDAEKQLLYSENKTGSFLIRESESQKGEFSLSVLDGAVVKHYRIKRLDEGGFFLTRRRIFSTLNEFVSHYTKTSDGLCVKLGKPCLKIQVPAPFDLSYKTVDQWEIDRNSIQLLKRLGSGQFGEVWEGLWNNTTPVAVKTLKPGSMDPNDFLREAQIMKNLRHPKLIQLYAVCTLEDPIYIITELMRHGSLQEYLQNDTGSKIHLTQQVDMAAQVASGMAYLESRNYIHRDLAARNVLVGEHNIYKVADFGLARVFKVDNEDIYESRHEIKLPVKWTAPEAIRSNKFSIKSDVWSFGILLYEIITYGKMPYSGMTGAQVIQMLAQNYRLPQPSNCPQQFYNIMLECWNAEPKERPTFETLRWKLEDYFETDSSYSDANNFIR
Sequence of UniProt Q99558 (whole entry, looked up): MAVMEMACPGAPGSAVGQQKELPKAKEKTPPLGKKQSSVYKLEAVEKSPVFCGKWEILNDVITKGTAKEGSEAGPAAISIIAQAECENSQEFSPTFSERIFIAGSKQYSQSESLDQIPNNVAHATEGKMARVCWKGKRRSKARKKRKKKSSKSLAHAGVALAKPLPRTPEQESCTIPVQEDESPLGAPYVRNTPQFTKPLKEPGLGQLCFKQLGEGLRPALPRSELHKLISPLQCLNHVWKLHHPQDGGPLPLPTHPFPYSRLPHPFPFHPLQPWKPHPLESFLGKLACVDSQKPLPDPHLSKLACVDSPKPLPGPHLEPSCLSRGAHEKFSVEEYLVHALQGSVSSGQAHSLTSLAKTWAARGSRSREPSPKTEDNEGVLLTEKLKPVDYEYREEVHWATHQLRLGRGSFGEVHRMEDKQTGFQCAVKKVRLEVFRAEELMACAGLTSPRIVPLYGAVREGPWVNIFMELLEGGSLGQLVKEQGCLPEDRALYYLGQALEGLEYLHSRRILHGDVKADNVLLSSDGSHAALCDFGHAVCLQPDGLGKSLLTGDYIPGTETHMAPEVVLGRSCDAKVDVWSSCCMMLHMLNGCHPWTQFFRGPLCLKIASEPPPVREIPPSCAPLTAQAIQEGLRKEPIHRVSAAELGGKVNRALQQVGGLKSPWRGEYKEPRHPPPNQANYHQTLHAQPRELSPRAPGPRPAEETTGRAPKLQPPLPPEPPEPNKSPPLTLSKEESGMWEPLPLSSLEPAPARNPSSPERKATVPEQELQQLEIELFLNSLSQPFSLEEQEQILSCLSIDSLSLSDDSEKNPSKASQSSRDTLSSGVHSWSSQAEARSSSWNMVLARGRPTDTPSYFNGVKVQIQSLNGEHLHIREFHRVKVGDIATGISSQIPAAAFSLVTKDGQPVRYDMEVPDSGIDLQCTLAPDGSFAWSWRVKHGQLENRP

Series 1
Target: Max-binding protein MNT, bHLH-zipper, MAX partner unstated (MNT, Homo sapiens, UniProt Q99583, residues 220-300)
Method: protein-binding microarray
Form: double-stranded DNA, one strand shown
Sample: in vitro
Tested at: not given
Notes: k-mer, scored over probes, only values ≥0.25
Direction: higher = stronger binding
Target sequence (chain): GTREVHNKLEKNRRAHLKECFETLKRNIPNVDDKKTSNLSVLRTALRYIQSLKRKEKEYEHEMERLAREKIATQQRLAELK
| Sequence | E-score |
| --- | --- |
| GCCCACCC | 0.414 |
| AACACGTT | 0.418 |
| CAGGGGCG | 0.29 |
| AACATGCC | 0.304 |
| ACAACCCC | 0.286 |
| AGGCACGC | 0.394 |
| CATGACAA | 0.298 |
| AAACACAC | 0.273 |

Series 2
SMILES: COc1cc(Nc2c(C#N)cnc3cc(OCCCN4CCN(C)CC4)c(OC)cc23)c(Cl)cc1Cl
Effect on: enzyme activity
Action: inhibitor
Tested at: 0.5 µM
Reference: control
| target | remaining activity [%] |
| --- | --- |
| ULK3 (Homo sapiens, UniProt Q6PHR2) | 100 |
| MAP3K14 (Homo sapiens, UniProt Q99558) | 129 |
| GSK3B (Homo sapiens, UniProt P49841) | 99.9 |
| MERTK (Homo sapiens, UniProt Q12866) | 28.9 |
| NEK1 (Homo sapiens, UniProt Q96PY6) | 15.2 |
| ACVR1B (Homo sapiens, UniProt P36896) | 105 |
| NEK6 (Homo sapiens, UniProt Q9HC98) | 85.3 |
| FGFR3 (Homo sapiens, UniProt P22607) | 82.6 |
| MAP2K2 (Homo sapiens, UniProt P36507) | 8.43 |
| ARAF (Homo sapiens, UniProt P10398) | 109 |
| JAK3 (Homo sapiens, UniProt P52333) | 88.5 |
| ULK2 (Homo sapiens, UniProt Q8IYT8) | 92.2 |
| TAOK2 (Homo sapiens, UniProt Q9UL54) | 65.4 |
| FGFR1 (Homo sapiens, UniProt P11362) | 64.4 |
| GRK7 (Homo sapiens, UniProt Q8WTQ7) | 101 |
| TEK (Homo sapiens, UniProt Q02763) | 82.6 |
| ABL2 (Homo sapiens, UniProt P42684) | 2.19 |
| RPS6KA2 (Homo sapiens, UniProt Q15349) | 44.2 |
| FRK (Homo sapiens, UniProt P42685) | 29.2 |
| EPHA3 (Homo sapiens, UniProt P29320) | 31.7 |
| MAP3K5 (Homo sapiens, UniProt Q99683) | 95.7 |
| WEE1 (Homo sapiens, UniProt P30291) | 40.5 |

Series 3
Target: Prothrombin, mature alpha-thrombin (F2, Homo sapiens, UniProt P00734)
Method: aptamer microarray, sandwich
Form: DNA with 2'F-ANA
Sample: in vitro
Tested at: 200 nM
Notes: whole 15-mer aptamer, many near background
Together with: Cy3 exosite-II aptamer, 400 nM
Direction: higher = stronger binding
Sequence: GGTTGGTGTGGTTGG
| Modification | mean fluorescence intensity |
| --- | --- |
| 2'F-ANA at 2 3 4 6 10 12 13 14 | 158 a.u. |
| 2'F-ANA at 2 3 4 5 6 7 8 9 12 | 224 a.u. |
| 2'F-ANA at 1 3 8 9 11 12 13 | 474 a.u. |
| 2'F-ANA at 1 3 4 7 8 13 15 | 181 a.u. |
| 2'F-ANA at 1 2 5 8 9 10 12 13 14 | 56.7 a.u. |
| 2'F-ANA at 2 3 8 12 | 1150 a.u. |
| 2'F-ANA at 1 3 8 10 12 13 14 15 | 58.5 a.u. |
| 2'F-ANA at 1 3 4 6 7 9 | 182 a.u. |

Series 4
Compound: C[C@H](c1ccc(F)cc1)N(Cc1cccc(C(=O)O)c1)C(=O)c1cnc2ccccc2c1
Tested at: 1 µM
| target | test | remaining binding [%] |
| --- | --- | --- |
| CLK2 (Homo sapiens, UniProt P49760) | cell-free assay, competition with immobilised ligand | 98 |
| ACVR2A (Homo sapiens, UniProt P27037) | cell-free assay, competition with immobilised ligand | 100 |
| EGFR (Homo sapiens, UniProt P00533, A750P/del747-749) | cell-free assay, competition with immobilised ligand | 100 |
| SIK1 (Homo sapiens, UniProt P57059) | competition binding | 90 |
| EPHB2 (Homo sapiens, UniProt P29323) | cell-free assay, competition with immobilised ligand | 96 |
| EGFR (Homo sapiens, UniProt P00533, del747-752/P753S) | cell-free assay, competition with immobilised ligand | 100 |

Repeated from above (series 2):
| target | remaining activity [%] |
| --- | --- |
| MERTK (Homo sapiens, UniProt Q12866) | 28.9 |
| NEK1 (Homo sapiens, UniProt Q96PY6) | 15.2 |
| ACVR1B (Homo sapiens, UniProt P36896) | 105 |
| NEK6 (Homo sapiens, UniProt Q9HC98) | 85.3 |
| FGFR3 (Homo sapiens, UniProt P22607) | 82.6 |
| MAP2K2 (Homo sapiens, UniProt P36507) | 8.43 |
| ARAF (Homo sapiens, UniProt P10398) | 109 |
